Published values from different studies.
Protocols differ between the studies behind these lines. ± gives the spread as reported.
ppa: Inorganic pyrophosphatase (ppa, Escherichia coli, UniProt P0A7A9)
UniProt P0A7A9, sequence (whole entry, looked up): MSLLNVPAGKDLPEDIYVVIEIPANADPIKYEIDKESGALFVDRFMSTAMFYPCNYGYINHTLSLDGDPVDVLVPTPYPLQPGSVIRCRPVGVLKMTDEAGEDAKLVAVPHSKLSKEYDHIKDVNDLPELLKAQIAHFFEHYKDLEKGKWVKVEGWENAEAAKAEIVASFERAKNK
CCKAR: Cholecystokinin receptor type A (CCKAR, Homo sapiens, UniProt P32238)
UniProt P32238, sequence (whole entry, looked up): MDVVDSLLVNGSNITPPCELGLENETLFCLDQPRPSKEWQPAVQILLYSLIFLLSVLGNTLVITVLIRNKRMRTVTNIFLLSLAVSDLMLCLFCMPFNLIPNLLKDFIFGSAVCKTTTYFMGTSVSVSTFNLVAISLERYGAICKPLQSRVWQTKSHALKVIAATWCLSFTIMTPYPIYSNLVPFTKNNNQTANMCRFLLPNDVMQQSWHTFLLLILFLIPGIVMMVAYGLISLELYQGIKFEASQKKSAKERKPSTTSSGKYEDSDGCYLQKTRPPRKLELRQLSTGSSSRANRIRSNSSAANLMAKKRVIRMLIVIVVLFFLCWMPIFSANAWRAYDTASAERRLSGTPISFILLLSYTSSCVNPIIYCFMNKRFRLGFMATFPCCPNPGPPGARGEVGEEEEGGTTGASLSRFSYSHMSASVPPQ
TDP1: Tyrosyl-DNA phosphodiesterase 1 (TDP1, Homo sapiens, UniProt Q9NUW8)
UniProt Q9NUW8, sequence (whole entry, looked up): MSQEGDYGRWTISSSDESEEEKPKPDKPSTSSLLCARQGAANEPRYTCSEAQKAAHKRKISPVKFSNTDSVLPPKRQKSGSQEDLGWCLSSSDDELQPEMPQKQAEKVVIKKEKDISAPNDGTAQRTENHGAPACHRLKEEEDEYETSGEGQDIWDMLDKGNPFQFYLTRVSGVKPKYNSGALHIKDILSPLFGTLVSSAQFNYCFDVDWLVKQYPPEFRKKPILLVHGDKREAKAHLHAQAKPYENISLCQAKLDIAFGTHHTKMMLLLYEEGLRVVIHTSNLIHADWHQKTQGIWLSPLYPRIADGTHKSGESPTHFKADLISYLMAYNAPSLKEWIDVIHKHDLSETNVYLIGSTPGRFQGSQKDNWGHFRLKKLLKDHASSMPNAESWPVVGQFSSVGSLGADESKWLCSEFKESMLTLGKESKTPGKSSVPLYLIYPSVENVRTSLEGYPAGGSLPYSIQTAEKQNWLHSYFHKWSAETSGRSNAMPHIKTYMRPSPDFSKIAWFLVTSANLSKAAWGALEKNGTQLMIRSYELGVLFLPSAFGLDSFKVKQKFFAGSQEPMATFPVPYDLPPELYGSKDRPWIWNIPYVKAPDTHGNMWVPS
OfChi-h: Chitinase (OfChi-h, Ostrinia furnacalis, UniProt Q4AE59)
TACR3: Neuromedin-K receptor (TACR3, Homo sapiens, UniProt P29371)
UniProt P29371, sequence (whole entry, looked up): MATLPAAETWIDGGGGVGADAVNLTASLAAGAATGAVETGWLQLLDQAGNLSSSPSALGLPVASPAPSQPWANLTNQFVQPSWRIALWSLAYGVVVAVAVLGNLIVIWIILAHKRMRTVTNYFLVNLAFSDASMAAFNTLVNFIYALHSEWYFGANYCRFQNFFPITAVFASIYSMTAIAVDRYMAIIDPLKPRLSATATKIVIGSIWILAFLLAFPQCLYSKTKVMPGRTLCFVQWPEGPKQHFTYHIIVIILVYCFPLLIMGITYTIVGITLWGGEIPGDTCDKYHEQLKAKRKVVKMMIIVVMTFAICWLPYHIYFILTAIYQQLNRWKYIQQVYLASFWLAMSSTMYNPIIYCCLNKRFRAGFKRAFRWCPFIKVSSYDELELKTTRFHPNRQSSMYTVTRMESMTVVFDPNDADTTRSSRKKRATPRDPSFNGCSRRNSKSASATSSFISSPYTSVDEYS
Uncharacterized protein: Uncharacterized protein (Trypanosoma brucei brucei, UniProt Q386Q8)
PDE4D: 3',5'-cyclic-AMP phosphodiesterase 4D (PDE4D, Homo sapiens, UniProt Q08499)
UniProt Q08499, sequence (whole entry, looked up): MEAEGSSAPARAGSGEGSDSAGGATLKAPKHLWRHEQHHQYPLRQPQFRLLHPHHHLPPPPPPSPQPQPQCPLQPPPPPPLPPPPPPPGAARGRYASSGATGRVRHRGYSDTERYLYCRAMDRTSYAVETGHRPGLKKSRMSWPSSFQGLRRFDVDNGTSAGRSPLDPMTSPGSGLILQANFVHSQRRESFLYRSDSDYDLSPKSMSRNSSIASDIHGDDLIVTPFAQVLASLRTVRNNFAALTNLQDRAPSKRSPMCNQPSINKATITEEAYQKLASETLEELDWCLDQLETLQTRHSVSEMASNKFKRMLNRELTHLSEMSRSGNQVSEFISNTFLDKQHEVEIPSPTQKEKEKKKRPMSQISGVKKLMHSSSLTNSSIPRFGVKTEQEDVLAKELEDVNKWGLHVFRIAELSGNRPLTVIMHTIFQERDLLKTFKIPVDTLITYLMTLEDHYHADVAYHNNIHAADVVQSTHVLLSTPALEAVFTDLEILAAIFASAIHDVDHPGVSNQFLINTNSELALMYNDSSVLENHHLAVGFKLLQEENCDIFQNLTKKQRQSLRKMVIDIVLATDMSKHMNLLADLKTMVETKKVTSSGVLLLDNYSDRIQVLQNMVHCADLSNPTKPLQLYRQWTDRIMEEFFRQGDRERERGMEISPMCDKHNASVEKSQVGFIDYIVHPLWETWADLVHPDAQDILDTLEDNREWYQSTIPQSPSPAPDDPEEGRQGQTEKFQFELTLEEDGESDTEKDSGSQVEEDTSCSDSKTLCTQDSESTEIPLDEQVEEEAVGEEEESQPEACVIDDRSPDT
UniProt Q93009, sequence (whole entry, looked up): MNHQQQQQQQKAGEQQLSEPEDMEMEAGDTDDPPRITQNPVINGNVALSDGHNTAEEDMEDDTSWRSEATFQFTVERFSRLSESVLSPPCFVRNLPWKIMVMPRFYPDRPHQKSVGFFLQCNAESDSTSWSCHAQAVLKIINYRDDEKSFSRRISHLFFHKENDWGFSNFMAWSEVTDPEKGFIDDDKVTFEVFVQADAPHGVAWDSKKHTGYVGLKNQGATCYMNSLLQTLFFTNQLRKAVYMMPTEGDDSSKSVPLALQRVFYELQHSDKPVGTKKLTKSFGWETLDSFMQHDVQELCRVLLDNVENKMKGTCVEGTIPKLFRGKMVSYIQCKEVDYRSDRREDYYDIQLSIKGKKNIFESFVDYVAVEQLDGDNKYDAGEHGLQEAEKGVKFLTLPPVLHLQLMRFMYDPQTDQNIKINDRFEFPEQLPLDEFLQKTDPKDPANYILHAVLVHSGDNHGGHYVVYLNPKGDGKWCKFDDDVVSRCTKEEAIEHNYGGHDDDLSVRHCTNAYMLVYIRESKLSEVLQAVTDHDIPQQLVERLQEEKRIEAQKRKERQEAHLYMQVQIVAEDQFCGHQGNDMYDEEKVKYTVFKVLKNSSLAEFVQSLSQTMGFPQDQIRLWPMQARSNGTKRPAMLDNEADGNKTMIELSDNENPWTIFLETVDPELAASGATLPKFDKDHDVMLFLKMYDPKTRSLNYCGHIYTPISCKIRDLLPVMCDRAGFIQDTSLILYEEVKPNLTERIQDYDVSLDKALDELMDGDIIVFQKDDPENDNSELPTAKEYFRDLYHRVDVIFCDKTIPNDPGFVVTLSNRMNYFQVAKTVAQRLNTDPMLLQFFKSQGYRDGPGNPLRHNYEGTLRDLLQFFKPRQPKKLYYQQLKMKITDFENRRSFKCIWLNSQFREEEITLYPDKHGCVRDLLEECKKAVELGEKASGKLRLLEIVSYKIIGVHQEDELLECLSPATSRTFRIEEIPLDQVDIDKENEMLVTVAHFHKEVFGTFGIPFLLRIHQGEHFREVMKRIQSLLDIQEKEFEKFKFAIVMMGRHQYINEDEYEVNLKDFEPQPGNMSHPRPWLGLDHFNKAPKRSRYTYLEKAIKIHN
UniProt P14778, sequence (whole entry, looked up): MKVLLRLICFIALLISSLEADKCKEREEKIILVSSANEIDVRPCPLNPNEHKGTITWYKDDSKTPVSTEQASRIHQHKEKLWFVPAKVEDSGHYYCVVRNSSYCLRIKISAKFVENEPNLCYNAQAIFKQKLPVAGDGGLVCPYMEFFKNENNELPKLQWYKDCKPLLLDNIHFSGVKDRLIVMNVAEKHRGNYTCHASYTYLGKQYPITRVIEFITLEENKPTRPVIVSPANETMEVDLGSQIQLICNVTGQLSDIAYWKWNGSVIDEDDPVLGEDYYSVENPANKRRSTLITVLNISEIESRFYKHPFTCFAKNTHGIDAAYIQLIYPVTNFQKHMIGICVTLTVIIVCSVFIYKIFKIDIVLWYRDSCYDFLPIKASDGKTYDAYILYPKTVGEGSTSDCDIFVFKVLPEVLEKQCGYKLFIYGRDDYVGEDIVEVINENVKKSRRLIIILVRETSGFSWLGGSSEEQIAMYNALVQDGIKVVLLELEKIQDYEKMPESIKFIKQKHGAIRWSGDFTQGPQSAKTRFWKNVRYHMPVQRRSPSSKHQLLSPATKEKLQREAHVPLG
UniProt Q5U3Y7, sequence (whole entry, looked up): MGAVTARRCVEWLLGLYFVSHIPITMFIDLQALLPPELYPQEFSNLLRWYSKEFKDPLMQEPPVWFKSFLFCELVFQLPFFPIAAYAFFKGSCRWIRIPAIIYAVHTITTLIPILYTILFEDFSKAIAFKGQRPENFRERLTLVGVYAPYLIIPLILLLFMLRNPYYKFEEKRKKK
UniProt Q13043, sequence (whole entry, looked up): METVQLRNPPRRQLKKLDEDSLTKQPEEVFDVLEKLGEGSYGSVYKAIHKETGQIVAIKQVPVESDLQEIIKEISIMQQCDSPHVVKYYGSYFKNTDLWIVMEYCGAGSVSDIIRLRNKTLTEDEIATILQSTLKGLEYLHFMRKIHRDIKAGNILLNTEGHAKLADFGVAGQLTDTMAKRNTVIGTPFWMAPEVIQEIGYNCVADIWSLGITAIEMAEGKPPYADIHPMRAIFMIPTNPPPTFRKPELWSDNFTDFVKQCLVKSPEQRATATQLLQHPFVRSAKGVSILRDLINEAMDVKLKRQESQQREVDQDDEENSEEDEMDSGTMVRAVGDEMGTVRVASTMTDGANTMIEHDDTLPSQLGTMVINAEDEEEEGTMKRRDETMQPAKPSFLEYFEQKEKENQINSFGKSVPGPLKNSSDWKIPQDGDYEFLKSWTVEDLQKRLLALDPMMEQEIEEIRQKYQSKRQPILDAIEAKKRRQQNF
UniProt O75365, sequence (whole entry, unmodified, looked up): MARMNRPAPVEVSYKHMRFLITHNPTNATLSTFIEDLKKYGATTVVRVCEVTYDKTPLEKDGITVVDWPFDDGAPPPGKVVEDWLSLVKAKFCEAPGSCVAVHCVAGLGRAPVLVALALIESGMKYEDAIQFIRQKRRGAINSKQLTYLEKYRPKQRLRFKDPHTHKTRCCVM

O=C1c2sc(-c3ccc(N4CCC(F)C4)nc3F)nc2CCN1c1cccnc1 (stereo not shown) gave an inhibition of 7% (Prostacyclin receptor (PTGIR, Homo sapiens, UniProt P43119); ligand displacement, radioligand; 1 µM).
Cc1nn(-c2cccc(N)c2)c(=O)c2cnc(Nc3ccc(N4CCNCC4)cc3)nc12 gave an IC50 of over 10 µM (Serine/threonine-protein kinase 4 (STK4, Homo sapiens, UniProt Q13043); enzyme activity, inhibitor).
The AUC(0-tau) of C=C(NC(=O)c1csc(-c2nc3c(cc2O)-c2nc(cs2)C(=O)NC(C(C)O)C(=O)NC(=C(C)OC)c2nc(cs2)C(=O)NC2c4nc(cs4)C(=O)NC(COC(=O)c4c5c6c(cccc6n4O)COC(=O)C(OC4CC(C)(O)C(N(C)C)C(C)O4)C2OC5)c2nc-3cs2)n1)C(N)=O (stereo not shown) is reported as 12800 ± 3610 ng·h/mL (cynomolgus monkey, both sexes, plasma; intravenous infusion, 1.5 mg/kg twice daily, 6 to 12 h after second dose).
With COc1ccc(OC)c(C2=Nn3c(nnc3C3CCCCC3)SC2)c1 the inhibition was 8.3% (ppa; inhibitor, counter-screen, coupling enzyme alone; 30 µM).
The inhibition of C[Si]1(C[C@H](CN)CC(=O)O)CCCC1 is reported as -3% (CCKAR; ligand displacement, radioligand; 70 µM).
C[N+]1(Cc2ccccc2)CCN(CCCN2c3ccccc3Sc3ccc(Cl)cc32)CC1 gave an inhibition of 29.3% (ppa; inhibitor, counter-screen, coupling enzyme alone; 30 µM).
The inhibition of O=C(O)c1ccc(Nc2c(-c3ccccc3)nc3ccc(CON=Cc4ccccc4OCc4cn5cccnc5n4)cn23)cc1 is reported as 9.7% (TDP1; enzyme activity, inhibitor; 100 µM, unpurified compound).
Cc1ncsc1-c1ccc(C(C)NC(=O)C2CC(O)CN2C(=O)C(NC(=O)CCCCCCCCCCN2CCCC(Nc3ncc(Cl)c(Nc4ccccc4S(=O)(=O)C(C)C)n3)C2)C(C)(C)C)cc1 (stereo not shown) — result for “log2 fold change”: -1.91 (22Rv1; RNA-seq, item: ULBP1 mRNA; concentration not given; relative to: DMSO).
CN(C)c1nc(NCc2ccc(Oc3ccccc3)cc2)c(/N=N/c2ccc(Cl)cc2)c(N(C)C)n1 gave an inhibition of 92% (OfChi-h; enzyme activity, inhibitor, fluorescence; 1 µM).
With CO[C@@H](C)c1c(NC(=O)Nc2cnc(-n3nccn3)c(C(F)(F)F)c2)cnc2sc(C)nc12 the inhibition was 11.5% (TACR3; ligand displacement, radioligand; 10 µM).
CC(=O)C1=C(C)Nc2ccccc2S1 has an inhibition of 31.5% (ppa; inhibitor, counter-screen, coupling enzyme alone; 30 µM).
Cc1cc(Cl)cc(-c2ccnc3cc(CN4C(=O)C5C(C4=O)C5(C)C)sc23)c1C[C@@H]1CNCCO1 (stereo partly shown) has an inhibition of 114% (Ubiquitin carboxyl-terminal hydrolase 7 (USP7, Homo sapiens, UniProt Q93009); enzyme activity, inhibitor; 5 µM).
The inhibition of CC1Cc2ccccc2N1C(=O)CN1CCN(c2ccccc2)CC1 (stereo not shown) is reported as 0.2% (5-hydroxytryptamine receptor 4 (HTR4, Homo sapiens, UniProt Q13639); radioligand binding; concentration not given).
CN(Cc1ccc(/C=C/C(=O)NO)cc1)CC12CC3CC(CC(C3)C1)C2 has an inhibition of -5% (human M1 receptor; antagonist radioligand binding; 0.05 µM).
O=C(O)c1ccc(Nc2c(-c3ccccc3)nc3ccc(CON=Cc4cn(Cc5ccc(Cl)cc5)nn4)cn23)cc1 (mixture of isomers) gave an inhibition of 15.6% (TDP1; enzyme activity, inhibitor; 100 µM, unpurified compound).
The inhibition of Cn1c(/C=C/c2cn(C)c3ccccc23)nc2ccccc2c1=O is reported as 26.3% (Uncharacterized protein; enzyme activity, inhibitor, coupled colorimetric; 30 µM, together with: E. coli pyrophosphatase coupling).
The inhibition of O=C1c2sc(-c3ccc(N4CCC(CO)CC4)nc3F)nc2CCN1c1cccnc1 is reported as -15% (CCKAR; ligand displacement, radioligand; 1 µM).
The tissue uptake of CCCC[C@H](NC(=O)COCCOCCNC(=O)CN1CCN(CC(=O)O)CCN(CC(=O)O)CC1)C(=O)N[C@H]1CC(=O)NCCCC[C@@H](C(N)=O)NC(=O)[C@H](Cc2c[nH]c3ccccc23)NC(=O)[C@H](CCCNC(=N)N)NC(=O)[C@@H](Cc2ccccc2)NC(=O)[C@H](Cc2c[nH]cn2)NC1=O [technetium-99m labelled] is reported as 0.01 %ID/g (C57 mouse, brain; intravenous, 0.037 MBq, 4 h).
With O=C(O)c1ccc(Nc2c(-c3ccccc3)nc3ccc(CON=Cc4cc([N+](=O)[O-])cc5c4OCOC5)cn23)cc1 the inhibition was -1.5% (TDP1; enzyme activity, inhibitor; 100 µM, unpurified compound).
With CC(=O)C12NC(C)(C)CC1(C)C(=O)C1=C2c2c(c3c4n2C(C)(C)CC2=C4C4(CC(C)(C)NC(C)(C4)C2=O)CC3(C)C)C(=O)C(C)(C)N1 (single isomer, unassigned; (-)) the inhibition was 2.26 ± 0.11% (Voltage-dependent T-type calcium channel subunit alpha-1I (CACNA1I, Homo sapiens, UniProt Q9P0X4); ion current, antagonist, whole-cell patch clamp; HEK293T; 10 µM).
CN1CCCNC(=O)c2cccc(c2)C(=O)NCCCN(C)CCCNc2cccc3c2C(=O)c2cccc(c2C3=O)NCCC1: “log2 fold change” -0.578 (SAS; RNA-Seq, item: SMAD2 mRNA; 1 µM, 6 h; relative to: untreated cells).
The inhibition of O=C(O)c1ccc(-c2ccc(O)cc2)c2c1C=C(c1ccc(O)cc1)OC2(c1ccc(O)cc1)c1ccc(O)cc1 is reported as at least 50% (PDE4D; enzyme activity, inhibitor; 50 nM).
Cn1ccc2cc(-n3c(=O)[nH]c4sc5c(c4c3=O)CCCC5)ccc21 has an inhibition of -2% (Interleukin-1 receptor type 1 (IL1R1, Homo sapiens, UniProt P14778); cell-free assay; 10 µM).
COC1CN([C@H]2CC[C@H]([C@@]3(C)Oc4c(Cl)cc(C(=O)NCc5c(SC)cc(C)[nH]c5=O)c(C)c4O3)CC2)C1: “log2 fold change” 1.61 (RNA-seq, item: TMEM86B mouse homolog; mouse, HT-1376 xenograft, whole blood; dose not given; relative to: vehicle).
O=C(CSc1nnc(-c2ccco2)c(-c2ccco2)n1)c1cccs1 has an inhibition of 8% (ppa; inhibitor, counter-screen, coupling enzyme alone; 30 µM).
O=C(O)c1ccc(Nc2c(-c3ccc(CON=Cc4[nH]ncc4Br)cc3)nc3cc(-c4ccccc4)ccn23)cc1 (mixture of isomers) gave an inhibition of 81.1% (TDP1; enzyme activity, inhibitor; 100 µM, unpurified compound).
With CC(C)C[C@H](NC(=O)[C@@H](CCCCNC(=O)[C@@H](Cc1ccccc1)NC(=O)CCCCCNC(=O)CN1CCN(CC(=O)O)CCN(CC(=O)O)CCN(CC(=O)O)CC1)NC(=O)[C@H](Cc1ccc(O)cc1)NC(=O)[C@H](CO)NC(=O)[C@H](Cc1c[nH]c2ccccc12)NC(=O)[C@H](Cc1c[nH]cn1)NC(=O)[C@@H]1CCC(=O)N1)C(=O)N[C@@H](CCCNC(=N)N)C(=O)N1CCC[C@H]1C(=O)NCC(N)=O [indium-111 labelled] the tissue uptake was 0.02 ± 0.02 %ID/g (female athymic nude mice, heart; intravenous, 0.037 MBq, 4 h).
For C[Si](C)(C)C[C@@H](CN)CC(=O)O, the inhibition was 5% (Sigma intracellular receptor 2 (Tmem97, Rattus norvegicus, UniProt Q5U3Y7); ligand displacement, radioligand; 75 µM).
CS(=O)(=O)Nc1cccc(-c2csc3cnc(Nc4ccc(N5CCN(CCCCCOc6cccc7c6C(=O)N(C6CCC(=O)NC6=O)C7=O)CC5)cc4)nc23)c1 (stereo not shown) gave an inhibition of 32.4% (Mitogen-activated protein kinase kinase kinase 21 (MAP3K21, Homo sapiens, UniProt Q5TCX8); probe labelling, inhibitor, KiNativ chemoproteomics; MOLT-4; 1 µM).
CNS(=O)(=O)Nc1nccc(Cc2c(C)c3ccc(Oc4ncccc4F)cc3oc2=O)c1F has an IC50 of over 1 µM (NCI-H2023; cell viability; 7 days).
Brc1ccccc1-c1nnc(CSc2nnnn2-c2ccccc2)o1 has an inhibition of 1% (Beta-2 adrenergic receptor (ADRB2, Homo sapiens, UniProt P07550); ligand displacement, radioligand; 10 µM).
Cc1nc2c(F)cc(-c3nc(Nc4ccc(CNC(=O)CCCCCCC(=O)NO)cc4)ncc3F)cc2n1C(C)C gave an inhibition of 21% (Phosphatidylinositol 4,5-bisphosphate 3-kinase catalytic subunit alpha isoform, with p85 alpha (Pik3ca, Mus musculus, UniProt P42337, H1047R); enzyme activity; 1 µM, p110α(H1047R)/p85α)(m mouse).
The inhibition of CN(C)c1nc(NCc2cccc(-c3ccccc3)c2)c(/N=N/c2ccc(Cl)cc2)c(N(C)C)n1 is reported as 88.9% (OfChi-h; enzyme activity, inhibitor, fluorescence; 1 µM).
With O=C(O)c1ccc(Nc2c(-c3ccccc3)nc3ccc(CON=Cc4cccn4Cc4cnc(Cl)s4)cn23)cc1 (mixture of isomers) the inhibition was 13.9% (TDP1; enzyme activity, inhibitor; 100 µM, unpurified compound).
The inhibition of COc1ccc(C#CC2=C[C@H]3C[C@@]4(OC(=O)C=C24)[C@H]2CC[C@H](C(OC)OC)N32)cc1 is reported as 16% (PDE4D; enzyme activity, inhibitor; 10 µM).
COc1ccc(C2NCCc3cc(O)c(O)cc32)cc1 (stereo not shown) gave an inhibition of 4.63 ± 2.45% (tyrosinase; enzyme activity, inhibitor; 100 µM, together with: levodopa).
With O=C(NCCCCc1ccccc1)n1c(=O)oc2cc(-c3ccc(F)cc3)ccc21 the inhibition was 17.1% (monoacylglycerol lipase; enzyme activity; 10 µM).
For CC(=O)NC1C(=O)N(c2ccccc2)N=C1C (stereo not shown), the inhibition was 49.2% (Uncharacterized protein; enzyme activity, inhibitor, coupled colorimetric; 30 µM, together with: E. coli pyrophosphatase coupling).
CC(C)C(C)NC(=O)COC(=O)c1cc2c(s1)CCC2 (stereo not shown) gave an inhibition of 90.7 ± 2% (Protein tyrosine phosphatase type IVA 3, with CNNM4 CBS domain (PTP4A3, Homo sapiens, UniProt O75365); protein-protein interaction, HTRF; 10 µM).
For C/C=C/C(=O)Nc1ccc2nc(NCCCCCN(C)C)nc(NCCCCCCN(C)C)c2c1, the inhibition was 73% (Protein arginine N-methyltransferase 8 (PRMT8, Homo sapiens, UniProt Q9NR22); enzyme activity, inhibitor, radiometric; 50 µM).
The inhibition of O=C(O)c1ccc(Nc2c(-c3ccccc3)nc3ccc(CON=Cc4c(-c5cccc(F)c5)nc5sccn45)cn23)cc1 (mixture of isomers) is reported as 71.9% (TDP1; enzyme activity, inhibitor; 100 µM, unpurified compound).
With CCC(=O)N(C)c1ccc(Cl)c(Cl)c1 the inhibition was under 10% (TACR3; ligand displacement, radioligand; 10 µM).
With C[N+](C)(CCCN1c2ccccc2CCc2ccc(Cl)cc21)Cc1ccccc1 the inhibition was 41.7% (Uncharacterized protein; enzyme activity, inhibitor, coupled colorimetric; 30 µM, together with: E. coli pyrophosphatase coupling).
Under “percent of control”, C=CC(=O)Nc1cccc(Cn2ncc3cnc(Nc4cnn(CCOC)c4)nc32)c1 is recorded as 43% (ERBB4 human; binding, KINOMEscan; 100 nM; lower = stronger binding).
The inhibition of Cc1[nH]nc2c1N=C(c1ccccc1Cl)c1cnc(N3CCOCC3)cc1N2 is reported as 2% (Endothelin receptor type B (EDNRB, Homo sapiens, UniProt P24530); cell-free assay; 10 µM).
For Nc1ncc(-c2cc(-c3cnn(CC(F)(F)F)c3)ncc2F)nc1C(=O)NC1CNCC(F)C1 (stereo not shown), the remaining binding was 95% (NEK4; KINOMEscan; 1 µM; relative to: DMSO control).
With Cc1ccc(C=NOCc2ccc3nc(-c4ccccc4)c(Nc4ccc(C(=O)O)cc4)n3c2)cc1C (mixture of isomers) the inhibition was 22.7% (TDP1; enzyme activity, inhibitor; 100 µM, unpurified compound).
For COc1cc(C2NCCc3cc(O)c(O)cc32)cc(OC)c1OC (stereo not shown), the inhibition was 13.4 ± 0.69% (tyrosinase; enzyme activity, inhibitor; 100 µM, together with: levodopa).
COc1ncc2nc(C)n(Cc3ncc(S(N)(=O)=O)cc3F)c2c1-c1ccccc1 has an inhibition of 2.78% (Voltage-dependent L-type calcium channel subunit alpha-1C (CACNA1C, Homo sapiens, UniProt Q13936); antagonist, cell-based; 10 µM).
COc1ccc(NC2(C#N)C(=O)Nc3ccccc32)cc1 (stereo not shown) gave an inhibition of 49.4% (Uncharacterized protein; enzyme activity, inhibitor, coupled colorimetric; 30 µM, together with: E. coli pyrophosphatase coupling).
COC(=O)c1ccc(-c2cccc(C=NOCc3ccc(-c4nc5cc(-c6ccccc6)ccn5c4Nc4ccc(C(=O)O)cc4)cc3)n2)cc1 gave an inhibition of 52% (TDP1; enzyme activity, inhibitor; 100 µM, unpurified compound).
CC1=NN(c2cccc(F)c2)C(=O)/C1=N\Nc1ccc(S(N)(=O)=O)cc1 has an inhibition of 30.5% (bovine α-glucosidase; enzyme activity, inhibitor, glucose oxidase; 100 µg/mL, together with: maltose).

Some of these lines once more:
With CO[C@@H](C)c1c(NC(=O)Nc2cnc(-n3nccn3)c(C(F)(F)F)c2)cnc2sc(C)nc12 the inhibition was 11.5% (TACR3; ligand displacement, radioligand; 10 µM).
O=C(O)c1ccc(Nc2c(-c3ccccc3)nc3ccc(CON=Cc4cn(Cc5ccc(Cl)cc5)nn4)cn23)cc1 (mixture of isomers) gave an inhibition of 15.6% (TDP1; enzyme activity, inhibitor; 100 µM, unpurified compound).
O=C1c2sc(-c3ccc(N4CCC(F)C4)nc3F)nc2CCN1c1cccnc1 (stereo not shown) gave an inhibition of 7% (Prostacyclin receptor (PTGIR, Homo sapiens, UniProt P43119); ligand displacement, radioligand; 1 µM).
The inhibition of CN(C)c1nc(NCc2cccc(-c3ccccc3)c2)c(/N=N/c2ccc(Cl)cc2)c(N(C)C)n1 is reported as 88.9% (OfChi-h; enzyme activity, inhibitor, fluorescence; 1 µM).
With Cc1ccc(C=NOCc2ccc3nc(-c4ccccc4)c(Nc4ccc(C(=O)O)cc4)n3c2)cc1C (mixture of isomers) the inhibition was 22.7% (TDP1; enzyme activity, inhibitor; 100 µM, unpurified compound).
Brc1ccccc1-c1nnc(CSc2nnnn2-c2ccccc2)o1 has an inhibition of 1% (Beta-2 adrenergic receptor (ADRB2, Homo sapiens, UniProt P07550); ligand displacement, radioligand; 10 µM).
CN(C)c1nc(NCc2ccc(Oc3ccccc3)cc2)c(/N=N/c2ccc(Cl)cc2)c(N(C)C)n1 gave an inhibition of 92% (OfChi-h; enzyme activity, inhibitor, fluorescence; 1 µM).
